Measured values of several laboratories.
Protocols differ between the studies behind these lines.
Target: Serine/threonine-protein kinase Nek3 (NEK3, Homo sapiens, UniProt P51956)

SMILES | assay | system | conditions | scale | endpoint | value
O=C=[N][Ru-4]123([n]4c5ccc(O)cc5c5c6c(c7cc(F)c[n+]1c7c54)C(=O)NC6=O)[S+]1CC[S+]2CC[S+]3CC1 (centres unmarked) | enzyme activity |  | 100 nM, human enzyme, added: 10 µM ATP | baseline: untreated | remaining activity | 97%
NC(=O)C[C@H]1CCc2sc3ncnc(O[C@H]4CC[C@H](N5CCOCC5)CC4)c3c21 | enzyme activity, inhibitor |  | 10 µM |  | inhibition | -10%
COc1cc(Nc2nccc(-c3cnn4nc(OC)ccc34)n2)cc(C(F)(F)F)c1 | binding, competition with immobilised ligand |  | 1 µM |  | remaining binding | 70%
CCN1CCN(Cc2ccc(C(=O)Nc3ccc(C)c(NCc4cnc5[nH]ccc5c4OC)c3)cc2C(F)(F)F)CC1 | binding, competition with immobilised ligand |  | 1 µM |  | remaining binding | 47%
COc1ccc(NC(=O)Nc2ccc3c(c2)C(=O)N(C(C)CO)CC(C)C(CN(C)Cc2ccc4c(c2)OCO4)O3)cc1 (centres unmarked) | kinase activity, KinaseProfiler |  | 0.03 µM, species human | baseline: control | remaining activity | 105%
C=CC(=O)Nc1cc(-c2nn(C3CCN(CCNC(=O)[C@H](C)CCC45CC6CC(CC(C6)C4)C5)CC3)c3ncnc(N)c23)ccc1Oc1ccccc1 | inhibitor, KiNativ profiling | biochemical | 2 µM |  | inhibition | 15.6%
Nc1ncc2c(n1)-c1c([nH]c3ccc(C4=CCOCC4)cc13)CCC2 | binding, competition with immobilised ligand |  | 1 µM |  | remaining binding | 82%
COc1c(Cl)cccc1Nc1c(-c2ccncc2C#C[C@@]2(C)CCCN2C(=O)/C=C/CN(C)C)[nH]c2c1C(=O)NCC2 | binding, competition with immobilised ligand |  | 3 µM |  | remaining binding | 63%
CNC(=O)C1CCN(c2cc(C)c(F)cc2NC(=O)c2ccc(-c3cc(O)ccc3C)c(C)c2)CC1 | binding, competition with immobilised ligand |  | 1 µM |  | remaining binding | 88%
Cc1cnc2nc1Nc1cccc(c1)COC/C=C/COCc1cc(ccc1OCCN1CCOCC1)N2 | binding |  | 0.1 µM |  | remaining binding | 89%
COc1c(OCCCN2CCOCC2)ccc2c1N=C(NC(=O)c1cnc(N)nc1)N1CCN=C21 | kinase activity, inhibitor |  | 1 µM | baseline: untreated control | remaining activity | 105%
O=C(Cc1ccc(OCc2ccccc2)cc1)NC1(C(=O)O)CCN(C(=O)c2ccc(-c3cccc(Cl)c3)cc2)CC1 | enzyme activity, inhibitor |  | 10 µM |  | activity vs control | 77%
CN1C[C@@H](c2c[nH]c3cc(Br)ccc23)NC[C@@H]1c1c[nH]c2cc(Br)ccc12 | enzyme activity, inhibitor |  | 10 µM |  | remaining activity | 102%
Nc1ncc(-c2cc(-c3cnn(CC(F)(F)F)c3)ncc2F)nc1C(=O)NC1CNCC(F)C1 (centres unmarked) | enzyme activity |  | 1 µM | baseline: DMSO control | remaining activity | 80%

Repeated from above:
SMILES | assay | system | conditions | scale | endpoint | value
CNC(=O)C1CCN(c2cc(C)c(F)cc2NC(=O)c2ccc(-c3cc(O)ccc3C)c(C)c2)CC1 | binding, competition with immobilised ligand |  | 1 µM |  | remaining binding | 88%
O=C=[N][Ru-4]123([n]4c5ccc(O)cc5c5c6c(c7cc(F)c[n+]1c7c54)C(=O)NC6=O)[S+]1CC[S+]2CC[S+]3CC1 (centres unmarked) | enzyme activity |  | 100 nM, human enzyme, added: 10 µM ATP | baseline: untreated | remaining activity | 97%
